Earlier results, collected from citations in different studies.
Compare with care: the assays were run in different laboratories. Numbers after ± are the reported error.
Slc6a4: Sodium-dependent serotonin transporter (Slc6a4, Rattus norvegicus, UniProt P31652)

By UniProt entry, the sequences of proteins in these tests, tags left out.
UniProt P31652, whole entry: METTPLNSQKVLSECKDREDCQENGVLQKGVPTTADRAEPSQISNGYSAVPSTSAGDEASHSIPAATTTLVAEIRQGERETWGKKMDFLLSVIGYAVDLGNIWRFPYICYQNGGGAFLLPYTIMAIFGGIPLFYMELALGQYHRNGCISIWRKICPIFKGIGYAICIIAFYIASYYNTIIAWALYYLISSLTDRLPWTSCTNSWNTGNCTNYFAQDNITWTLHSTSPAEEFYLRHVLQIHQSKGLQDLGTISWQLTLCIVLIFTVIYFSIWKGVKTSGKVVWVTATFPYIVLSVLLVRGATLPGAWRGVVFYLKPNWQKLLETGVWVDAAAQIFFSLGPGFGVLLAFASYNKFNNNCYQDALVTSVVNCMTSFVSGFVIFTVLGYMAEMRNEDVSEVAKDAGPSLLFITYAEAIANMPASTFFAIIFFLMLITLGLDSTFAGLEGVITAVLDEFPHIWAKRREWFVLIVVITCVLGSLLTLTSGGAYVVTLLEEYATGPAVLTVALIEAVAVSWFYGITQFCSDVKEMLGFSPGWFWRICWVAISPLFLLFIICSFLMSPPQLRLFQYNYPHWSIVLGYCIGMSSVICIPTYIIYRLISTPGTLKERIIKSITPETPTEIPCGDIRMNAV
UniProt P07813, whole entry: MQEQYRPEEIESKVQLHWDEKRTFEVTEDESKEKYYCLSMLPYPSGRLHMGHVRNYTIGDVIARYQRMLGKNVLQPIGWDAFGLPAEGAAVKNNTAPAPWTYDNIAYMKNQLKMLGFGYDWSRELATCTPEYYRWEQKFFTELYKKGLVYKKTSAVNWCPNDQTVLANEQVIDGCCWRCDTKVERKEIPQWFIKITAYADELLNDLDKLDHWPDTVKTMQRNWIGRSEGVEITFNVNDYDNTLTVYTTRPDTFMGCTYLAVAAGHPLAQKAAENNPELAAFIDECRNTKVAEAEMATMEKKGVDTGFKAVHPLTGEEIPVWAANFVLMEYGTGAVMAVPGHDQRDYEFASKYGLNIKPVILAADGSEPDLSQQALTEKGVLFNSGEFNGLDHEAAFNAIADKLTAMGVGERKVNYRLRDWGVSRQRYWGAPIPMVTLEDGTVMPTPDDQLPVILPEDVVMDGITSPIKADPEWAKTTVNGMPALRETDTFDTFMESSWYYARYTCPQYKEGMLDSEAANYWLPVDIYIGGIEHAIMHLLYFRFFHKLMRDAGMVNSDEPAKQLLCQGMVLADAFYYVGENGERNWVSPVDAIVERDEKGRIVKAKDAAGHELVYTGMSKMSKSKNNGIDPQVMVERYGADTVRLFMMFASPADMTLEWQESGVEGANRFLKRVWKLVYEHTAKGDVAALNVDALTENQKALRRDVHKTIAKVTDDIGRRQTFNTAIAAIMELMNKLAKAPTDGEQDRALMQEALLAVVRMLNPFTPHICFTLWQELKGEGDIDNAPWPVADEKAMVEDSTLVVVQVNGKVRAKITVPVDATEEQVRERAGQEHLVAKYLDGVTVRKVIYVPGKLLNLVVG
UniProt P28335, whole entry, looked up: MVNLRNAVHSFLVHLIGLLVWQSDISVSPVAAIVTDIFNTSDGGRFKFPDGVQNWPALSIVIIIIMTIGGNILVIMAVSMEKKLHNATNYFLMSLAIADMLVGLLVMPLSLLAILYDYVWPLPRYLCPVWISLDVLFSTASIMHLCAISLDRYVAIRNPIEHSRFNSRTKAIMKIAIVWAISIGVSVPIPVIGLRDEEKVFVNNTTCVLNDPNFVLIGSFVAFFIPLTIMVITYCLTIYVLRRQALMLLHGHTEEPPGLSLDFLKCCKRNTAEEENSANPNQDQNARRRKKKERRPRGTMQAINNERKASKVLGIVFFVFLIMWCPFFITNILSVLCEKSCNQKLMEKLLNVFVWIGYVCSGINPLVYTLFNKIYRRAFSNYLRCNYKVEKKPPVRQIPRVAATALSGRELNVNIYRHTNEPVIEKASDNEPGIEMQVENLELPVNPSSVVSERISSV
UniProt P25084, whole entry: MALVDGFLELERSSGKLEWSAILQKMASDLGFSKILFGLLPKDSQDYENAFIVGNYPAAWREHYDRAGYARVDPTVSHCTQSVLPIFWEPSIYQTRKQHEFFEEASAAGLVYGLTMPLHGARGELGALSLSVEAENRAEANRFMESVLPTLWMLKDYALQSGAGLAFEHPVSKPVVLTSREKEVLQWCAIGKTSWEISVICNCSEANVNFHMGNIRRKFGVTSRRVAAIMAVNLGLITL
UniProt Q9UUB1, whole entry: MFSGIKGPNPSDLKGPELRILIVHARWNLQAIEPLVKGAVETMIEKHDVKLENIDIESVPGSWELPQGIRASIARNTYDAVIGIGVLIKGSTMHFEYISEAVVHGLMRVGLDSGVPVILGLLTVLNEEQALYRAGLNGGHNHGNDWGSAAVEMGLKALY
UniProt P9WPP7, whole entry: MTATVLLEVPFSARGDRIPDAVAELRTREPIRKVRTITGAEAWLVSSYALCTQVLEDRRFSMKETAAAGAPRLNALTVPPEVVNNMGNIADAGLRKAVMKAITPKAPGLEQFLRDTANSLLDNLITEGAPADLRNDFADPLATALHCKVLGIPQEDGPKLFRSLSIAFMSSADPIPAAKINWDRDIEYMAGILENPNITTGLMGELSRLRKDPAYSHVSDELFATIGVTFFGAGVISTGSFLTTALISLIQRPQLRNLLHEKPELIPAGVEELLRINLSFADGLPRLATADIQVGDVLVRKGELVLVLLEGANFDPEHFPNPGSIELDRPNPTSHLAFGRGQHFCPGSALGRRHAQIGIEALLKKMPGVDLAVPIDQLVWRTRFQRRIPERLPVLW
UniProt P33534, whole entry: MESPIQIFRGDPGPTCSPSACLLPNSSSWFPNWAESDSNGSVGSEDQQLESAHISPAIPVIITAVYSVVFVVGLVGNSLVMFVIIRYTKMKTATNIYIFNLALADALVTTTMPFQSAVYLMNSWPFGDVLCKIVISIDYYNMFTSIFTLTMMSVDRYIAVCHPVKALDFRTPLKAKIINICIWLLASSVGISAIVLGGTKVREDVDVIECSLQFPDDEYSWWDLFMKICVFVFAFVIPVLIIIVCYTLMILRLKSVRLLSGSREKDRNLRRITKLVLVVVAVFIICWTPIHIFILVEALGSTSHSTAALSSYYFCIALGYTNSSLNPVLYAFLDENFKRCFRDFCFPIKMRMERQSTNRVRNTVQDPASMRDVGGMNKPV
UniProt P33535, whole entry: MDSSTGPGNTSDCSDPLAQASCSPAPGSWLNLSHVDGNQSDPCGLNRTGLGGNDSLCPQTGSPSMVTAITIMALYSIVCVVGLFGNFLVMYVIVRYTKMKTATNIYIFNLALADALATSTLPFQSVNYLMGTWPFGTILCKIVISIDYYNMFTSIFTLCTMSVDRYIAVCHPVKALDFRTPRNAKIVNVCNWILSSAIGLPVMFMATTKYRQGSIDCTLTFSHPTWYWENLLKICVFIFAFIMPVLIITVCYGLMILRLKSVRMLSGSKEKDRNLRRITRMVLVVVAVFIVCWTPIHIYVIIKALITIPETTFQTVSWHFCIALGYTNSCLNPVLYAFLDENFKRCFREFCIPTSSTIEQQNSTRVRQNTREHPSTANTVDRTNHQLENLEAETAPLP
UniProt Q86X55, whole entry: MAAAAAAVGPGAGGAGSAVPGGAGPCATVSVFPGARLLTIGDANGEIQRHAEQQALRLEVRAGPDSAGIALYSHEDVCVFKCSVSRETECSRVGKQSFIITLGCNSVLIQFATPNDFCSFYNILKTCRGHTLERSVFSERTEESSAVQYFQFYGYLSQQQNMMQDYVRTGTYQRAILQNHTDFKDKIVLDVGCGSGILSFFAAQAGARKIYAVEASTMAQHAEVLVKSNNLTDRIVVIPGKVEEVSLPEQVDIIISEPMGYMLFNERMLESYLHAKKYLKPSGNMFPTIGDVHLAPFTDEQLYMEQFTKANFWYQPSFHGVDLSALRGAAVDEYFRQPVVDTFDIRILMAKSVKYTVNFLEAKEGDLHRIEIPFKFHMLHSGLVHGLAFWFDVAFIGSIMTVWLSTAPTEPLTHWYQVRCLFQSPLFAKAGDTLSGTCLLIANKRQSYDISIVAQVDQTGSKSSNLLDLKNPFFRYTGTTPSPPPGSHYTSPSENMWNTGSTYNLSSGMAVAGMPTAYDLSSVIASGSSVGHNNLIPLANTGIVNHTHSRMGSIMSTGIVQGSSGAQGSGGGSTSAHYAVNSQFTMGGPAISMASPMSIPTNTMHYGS
UniProt P9WNX1, whole entry: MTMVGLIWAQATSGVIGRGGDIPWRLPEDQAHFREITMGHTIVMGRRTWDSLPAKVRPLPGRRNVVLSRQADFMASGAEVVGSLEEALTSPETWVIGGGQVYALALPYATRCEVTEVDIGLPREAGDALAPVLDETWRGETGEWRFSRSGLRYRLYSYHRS

SMILES | tested on | test | system | conditions | scale | measurement | value
NC[C@H]1OB(O)c2ccccc21 | leuS (Escherichia coli, UniProt P07813) | binding | – | – | – | residence time | 1 to 8 h
c1ccc2c[n+](CCCCCCCC[n+]3ccc4ccccc4c3)ccc2c1 | HeLa | cytotoxicity, MTT | – | – | – | IC50 | 970 µM
Nc1nc(Cl)nc2c1ncn2[C@H]1[C@H](O)[C@H](O)[C@]2(CO)C[C@H]12 | HTR2C (Homo sapiens, UniProt P28335) | – | – | 10 µM, together with: [3H]mesulergine | – | inhibition | 8%
O=C(Oc1c(Br)cc(Br)cc1CNC(=O)c1ccccc1[N+](=O)[O-])c1ccccc1Cl | lasR (Pseudomonas aeruginosa, UniProt P25084) | agonist | – | – | – | Emax | 100%
CCC(=O)Nc1c(NC[C@H](O)[C@H](O)[C@H](O)CO)[nH]c(=O)[nH]c1=O | 6,7-dimethyl-8-ribityllumazine synthase (rib4, Schizosaccharomyces pombe, UniProt Q9UUB1) | enzyme activity, enzyme kinetics | – | pH 7.0, inhibition | – | substrate dissociation constant (Ks) | 1.9 ± 0.3 µM
Clc1ccc(COC2(c3ccccc3)CC3CCC(C2)N3)cc1 (centres unmarked) | Slc6a4 | – | – | – | relative to: Ki DAT over Ki SERT | selectivity ratio | 3.6
NCCNCCSc1ccccc1 | – | – | plasma | 100 µg/mL, 24 h, room temperature | – | short-term stability | 94.8 ± 2.73 % remaining
c1ccc(C(CCn2ccnc2)(c2ccccc2)c2ccccc2)cc1 | cyp121 (Mycobacterium tuberculosis, UniProt P9WPP7) | – | – | – | – | Kd | 8.8 ± 3 µM
c1ccc2c(c1)ccc[n+]2CCCCCCCCCC[n+]1cccc2ccccc21 | HeLa | cytotoxicity, MTT | – | – | – | IC50 | 2720 µM
N#Cc1cc(C(=O)N[C@@H]2CC[C@@]3(O)[C@H]4Cc5ccc(O)c6c5[C@@]3(CCN4CC3CC3)[C@H]2O6)ccn1 | Oprk1 (Mus musculus, UniProt P33534) | – | – | – | relative to: Ki µ over Ki κ | selectivity ratio | 9.62
Cc1cc(O)cc(C)c1C[C@H](N)C(=O)N[C@@H]1CCNc2ccc(CC3Cc4ccccc4C3)cc21 | Oprm1 (Rattus norvegicus, UniProt P33535) | agonist | – | 10 µM | relative to: DAMGO | maximal stimulation | 86%
CSCCC(NC(=O)C(NC(=O)C(CO)NC(=O)C(Cc1ccccc1)NC(=O)C1CCCN1C(=O)C1CCCN1C(=O)C(CCCNC(=N)NCCCC1OC(n2cnc3c(N)ncnc32)C(O)C1O)NC(=O)C1CCCN1C(=O)C(C)NC(=O)C(C)NC(=O)C1CCCN1C(C)=O)C(C)O)C(=O)O (centres unmarked) | CARM1 (Homo sapiens, UniProt Q86X55) | – | – | – | relative to: CARM1 over PRMT1 | selectivity ratio | 250 fold
c1ccc(COC2(c3ccccc3)CC3CCC(C2)N3)cc1 (centres unmarked) | Slc6a4 | – | – | – | relative to: Ki DAT over Ki SERT | selectivity ratio | 0.47
NC1=NC2(CCCCC2)N(c2ccc(OCc3cn(CCCCOc4ccc5ccc(=O)oc5c4)nn3)cc2)C(N)=N1 | folA (Mycobacterium tuberculosis, UniProt P9WNX1) | enzyme activity | – | – | relative to: human over M. tuberculosis | selectivity ratio | 18

Repeated from above:
SMILES | tested on | test | system | conditions | scale | measurement | value
Clc1ccc(COC2(c3ccccc3)CC3CCC(C2)N3)cc1 (centres unmarked) | Slc6a4 | – | – | – | relative to: Ki DAT over Ki SERT | selectivity ratio | 3.6
NCCNCCSc1ccccc1 | – | – | plasma | 100 µg/mL, 24 h, room temperature | – | short-term stability | 94.8 ± 2.73 % remaining
